# Results pooled from the literature.
# Parts stem from different laboratories: compare values within a part only.

# Study 1
# Target: Sal-like protein 4, full length isoform A (SALL4, Homo sapiens, UniProt Q9UJQ4, residues 1-1053)
# Chain of UniProt Q9UJQ4 (whole entry, looked up): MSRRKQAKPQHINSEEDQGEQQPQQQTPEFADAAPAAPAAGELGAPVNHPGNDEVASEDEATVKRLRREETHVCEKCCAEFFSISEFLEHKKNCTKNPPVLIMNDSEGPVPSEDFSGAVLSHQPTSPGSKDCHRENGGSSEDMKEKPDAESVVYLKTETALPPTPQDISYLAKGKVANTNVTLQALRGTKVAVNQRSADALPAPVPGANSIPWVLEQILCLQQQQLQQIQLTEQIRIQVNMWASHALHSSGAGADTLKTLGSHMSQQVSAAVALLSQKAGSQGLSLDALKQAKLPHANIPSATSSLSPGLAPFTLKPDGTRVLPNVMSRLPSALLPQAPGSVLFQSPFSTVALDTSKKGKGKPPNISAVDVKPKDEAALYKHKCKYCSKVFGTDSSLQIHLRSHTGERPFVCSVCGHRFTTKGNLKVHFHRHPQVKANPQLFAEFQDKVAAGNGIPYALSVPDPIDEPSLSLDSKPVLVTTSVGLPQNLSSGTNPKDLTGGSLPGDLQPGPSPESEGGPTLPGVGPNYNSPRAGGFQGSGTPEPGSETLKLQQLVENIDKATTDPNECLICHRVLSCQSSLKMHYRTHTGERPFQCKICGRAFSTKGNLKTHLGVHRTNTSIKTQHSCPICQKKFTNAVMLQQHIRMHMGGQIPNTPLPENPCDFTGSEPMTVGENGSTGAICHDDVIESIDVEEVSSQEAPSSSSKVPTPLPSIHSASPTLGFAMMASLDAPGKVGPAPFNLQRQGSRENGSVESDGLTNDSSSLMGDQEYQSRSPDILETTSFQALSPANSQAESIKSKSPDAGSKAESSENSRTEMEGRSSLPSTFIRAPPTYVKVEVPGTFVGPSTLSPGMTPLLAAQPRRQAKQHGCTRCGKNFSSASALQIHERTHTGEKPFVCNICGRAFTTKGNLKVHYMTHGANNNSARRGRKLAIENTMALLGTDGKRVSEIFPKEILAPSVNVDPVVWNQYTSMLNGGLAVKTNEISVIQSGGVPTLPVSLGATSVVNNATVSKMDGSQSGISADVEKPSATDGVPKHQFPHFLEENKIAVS
# Method: universal PBM
# Molecule type: double-stranded DNA, one strand shown
# Sample: in vitro
# Tested at: 600 nM
# Notes: 8-mer, flanks averaged, mean of replicates
# Direction: higher = stronger binding
Oligonucleotide,E-score
GACCAGGA,-0.219
CCCGTCCC,-0.375
CAACAGCG,-0.25
CTCACCGC,-0.273
GGCTCGAA,-0.258
CCGACTGA,-0.14
AGAACTCG,0.00388
CCTCGCTC,-0.0755
ATGCAATA,0.281

# Study 2
# Target: Histone acetyltransferase KAT6A, winged helix 1, GST fusion (KAT6A, Homo sapiens, UniProt Q92794, residues 1-85)
# Method: protein binding microarray
# Molecule type: double-stranded DNA, one strand shown
# Sample: in vitro
# Tested at: not given
# Notes: 8-mer, flanks averaged, mean of 2 arrays, mostly near background
# Reference: not given
# Direction: higher = stronger binding
# Construct (chain): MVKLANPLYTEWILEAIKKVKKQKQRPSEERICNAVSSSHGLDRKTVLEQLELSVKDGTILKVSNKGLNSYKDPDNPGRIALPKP
Oligonucleotide,E-score
GCCGAACC,0.261
AGAAGGTC,-0.114
ATCGAAGG,0.00637
GTGCATAA,-0.145
CCGTTCTC,0.00446
TGAACCCA,-0.0357
CCTCTTCC,-0.0289

# Study 3
# Target: Centromere-binding protein 1, full length, N-terminal tag (CBF1, Saccharomyces cerevisiae, UniProt P17106, residues 1-351)
# Chain of UniProt P17106 (whole entry, looked up): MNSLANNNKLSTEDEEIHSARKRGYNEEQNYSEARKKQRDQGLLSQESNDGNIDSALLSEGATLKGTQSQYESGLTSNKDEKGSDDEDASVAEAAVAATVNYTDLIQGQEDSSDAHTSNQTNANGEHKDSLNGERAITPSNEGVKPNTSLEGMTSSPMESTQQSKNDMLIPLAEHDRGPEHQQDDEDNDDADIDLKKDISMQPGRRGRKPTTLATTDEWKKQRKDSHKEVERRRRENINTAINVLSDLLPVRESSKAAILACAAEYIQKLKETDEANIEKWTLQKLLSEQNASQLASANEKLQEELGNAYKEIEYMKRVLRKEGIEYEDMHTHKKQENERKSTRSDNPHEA
# Method: protein-binding microarray
# Molecule type: double-stranded DNA, one strand shown
# Sample: in vitro
# Tested at: 0.8 µM
# Notes: whole 60-bp probe, no competitor
# Direction: higher = stronger binding
# Shared flanks, not repeated: … GTCTTGATTCGCTTGACGCTGCTG
Oligonucleotide,fluorescence intensity
CTAACCTCAAAGGACCACGTTAAGTGGCCATATTTC,509 a.u.
TGTACGAAGCTATATGATGTTAATATAGTAGTTAGG,543 a.u.
GAACGACCGTACAAGCACGTACTGTGTAATTTTTAG,537 a.u.
CTATTATGTGAAGATTACGTGCTATATATACTTTTC,557 a.u.
CTAAGGGATTAGAATCACGTAAGACTCTTGATCTTC,510 a.u.
GAATTACTTATATATCACCTGCCGTCTCAGACGTAG,938 a.u.
GAATGGTACAGGAATCACACCCTTGAGCTTCTTTAG,514 a.u.
CTAGTGGCTTCTTGTCACGCCATACGTTACGCGTTC,886 a.u.

# Mixed results
Substance,target,assay,system,conditions,how to read,quantity,value
"PhoQ, residues 284 288 289 292 302 303 NLALSC","PhoP, residues 12 14 15 18 19 STWGI (Escherichia coli, UniProt P23836)","Sort-seq, refers to: YFP reporter",E. coli,"PhoQ-PhoP variant library, with: 10 µM Mg2+","reference: high Mg2+ state, higher = stronger signaling",fold induction,9.11

# Excerpt of the above (study 1):
Oligonucleotide,E-score
CCTCGCTC,-0.0755
